Experimental data gathered from unrelated publications.
Each numbered part is a random draw from the data of one study; scales do not carry over between parts.
Chain of UniProt P11802 (whole entry, looked up): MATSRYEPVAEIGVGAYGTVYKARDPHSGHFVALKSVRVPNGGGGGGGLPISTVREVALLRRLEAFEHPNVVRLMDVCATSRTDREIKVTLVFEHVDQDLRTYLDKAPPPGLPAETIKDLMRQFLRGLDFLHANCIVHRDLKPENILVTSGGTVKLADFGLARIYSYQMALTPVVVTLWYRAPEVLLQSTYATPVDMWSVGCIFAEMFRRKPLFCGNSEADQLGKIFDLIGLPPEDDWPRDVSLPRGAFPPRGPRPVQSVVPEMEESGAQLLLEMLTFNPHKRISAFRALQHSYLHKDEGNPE
Chain of UniProt Q15831 (whole entry, looked up): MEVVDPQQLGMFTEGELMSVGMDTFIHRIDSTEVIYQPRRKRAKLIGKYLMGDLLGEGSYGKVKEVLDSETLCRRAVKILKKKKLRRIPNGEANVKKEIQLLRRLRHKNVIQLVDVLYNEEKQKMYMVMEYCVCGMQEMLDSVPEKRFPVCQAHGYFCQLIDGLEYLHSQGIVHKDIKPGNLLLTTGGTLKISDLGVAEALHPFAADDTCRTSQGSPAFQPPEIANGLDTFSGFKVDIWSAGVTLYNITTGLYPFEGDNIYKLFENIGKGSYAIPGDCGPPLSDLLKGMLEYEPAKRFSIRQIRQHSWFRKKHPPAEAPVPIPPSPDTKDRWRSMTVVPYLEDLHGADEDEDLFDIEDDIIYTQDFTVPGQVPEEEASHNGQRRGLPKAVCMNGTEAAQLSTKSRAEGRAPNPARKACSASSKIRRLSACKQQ
Chain of UniProt Q13976 (whole entry, looked up): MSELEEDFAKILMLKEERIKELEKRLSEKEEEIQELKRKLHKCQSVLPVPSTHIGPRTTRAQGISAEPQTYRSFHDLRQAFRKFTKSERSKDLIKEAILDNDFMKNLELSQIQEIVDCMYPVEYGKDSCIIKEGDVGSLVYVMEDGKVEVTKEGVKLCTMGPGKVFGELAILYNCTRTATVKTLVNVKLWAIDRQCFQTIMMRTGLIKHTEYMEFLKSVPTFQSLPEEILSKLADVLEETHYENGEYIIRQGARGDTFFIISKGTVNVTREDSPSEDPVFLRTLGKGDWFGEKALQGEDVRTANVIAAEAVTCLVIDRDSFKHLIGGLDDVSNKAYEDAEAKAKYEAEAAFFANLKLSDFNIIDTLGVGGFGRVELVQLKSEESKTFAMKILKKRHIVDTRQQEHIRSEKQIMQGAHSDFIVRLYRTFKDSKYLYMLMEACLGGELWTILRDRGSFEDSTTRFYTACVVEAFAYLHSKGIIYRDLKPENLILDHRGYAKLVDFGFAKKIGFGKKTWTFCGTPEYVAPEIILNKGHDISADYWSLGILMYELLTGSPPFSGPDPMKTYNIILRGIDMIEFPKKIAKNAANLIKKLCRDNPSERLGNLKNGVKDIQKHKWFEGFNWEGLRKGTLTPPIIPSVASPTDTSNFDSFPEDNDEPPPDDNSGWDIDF
Chain of UniProt P53355 (whole entry, looked up): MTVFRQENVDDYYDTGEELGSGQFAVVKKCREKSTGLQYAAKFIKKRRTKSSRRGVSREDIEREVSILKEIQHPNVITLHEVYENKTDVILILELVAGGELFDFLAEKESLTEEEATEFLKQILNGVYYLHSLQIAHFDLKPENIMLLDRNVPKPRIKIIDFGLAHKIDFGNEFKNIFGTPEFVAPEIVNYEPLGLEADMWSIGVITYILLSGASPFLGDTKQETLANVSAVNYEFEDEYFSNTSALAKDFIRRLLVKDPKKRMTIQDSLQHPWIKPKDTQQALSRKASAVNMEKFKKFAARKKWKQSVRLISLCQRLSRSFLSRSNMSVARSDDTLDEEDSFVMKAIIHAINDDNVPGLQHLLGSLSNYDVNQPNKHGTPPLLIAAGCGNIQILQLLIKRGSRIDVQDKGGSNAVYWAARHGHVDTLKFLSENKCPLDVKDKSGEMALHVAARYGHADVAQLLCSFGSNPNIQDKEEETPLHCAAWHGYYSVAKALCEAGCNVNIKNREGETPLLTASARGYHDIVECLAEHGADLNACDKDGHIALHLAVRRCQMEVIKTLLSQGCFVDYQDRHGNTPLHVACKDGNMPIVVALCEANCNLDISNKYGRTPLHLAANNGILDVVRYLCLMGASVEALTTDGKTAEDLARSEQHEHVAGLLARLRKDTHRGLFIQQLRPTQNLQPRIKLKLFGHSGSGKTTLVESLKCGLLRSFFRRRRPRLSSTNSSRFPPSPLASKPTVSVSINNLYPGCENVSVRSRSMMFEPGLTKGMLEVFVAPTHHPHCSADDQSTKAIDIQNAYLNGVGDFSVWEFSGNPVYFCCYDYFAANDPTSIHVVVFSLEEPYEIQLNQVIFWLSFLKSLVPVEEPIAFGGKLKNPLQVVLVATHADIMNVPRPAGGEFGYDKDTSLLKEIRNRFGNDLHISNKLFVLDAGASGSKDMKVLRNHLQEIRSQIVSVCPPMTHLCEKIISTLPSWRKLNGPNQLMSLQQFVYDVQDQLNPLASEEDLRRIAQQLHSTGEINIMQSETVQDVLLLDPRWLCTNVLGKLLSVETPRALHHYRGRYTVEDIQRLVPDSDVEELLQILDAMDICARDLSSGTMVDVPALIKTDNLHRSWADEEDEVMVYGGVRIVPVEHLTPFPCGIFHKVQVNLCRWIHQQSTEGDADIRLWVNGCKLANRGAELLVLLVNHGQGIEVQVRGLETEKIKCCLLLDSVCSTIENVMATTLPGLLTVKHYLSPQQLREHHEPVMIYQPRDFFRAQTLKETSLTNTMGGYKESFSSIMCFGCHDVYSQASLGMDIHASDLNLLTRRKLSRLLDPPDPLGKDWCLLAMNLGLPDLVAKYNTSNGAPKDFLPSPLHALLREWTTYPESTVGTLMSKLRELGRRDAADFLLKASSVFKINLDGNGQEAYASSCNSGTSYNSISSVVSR
Chain of UniProt Q9C5W9 (whole entry, looked up): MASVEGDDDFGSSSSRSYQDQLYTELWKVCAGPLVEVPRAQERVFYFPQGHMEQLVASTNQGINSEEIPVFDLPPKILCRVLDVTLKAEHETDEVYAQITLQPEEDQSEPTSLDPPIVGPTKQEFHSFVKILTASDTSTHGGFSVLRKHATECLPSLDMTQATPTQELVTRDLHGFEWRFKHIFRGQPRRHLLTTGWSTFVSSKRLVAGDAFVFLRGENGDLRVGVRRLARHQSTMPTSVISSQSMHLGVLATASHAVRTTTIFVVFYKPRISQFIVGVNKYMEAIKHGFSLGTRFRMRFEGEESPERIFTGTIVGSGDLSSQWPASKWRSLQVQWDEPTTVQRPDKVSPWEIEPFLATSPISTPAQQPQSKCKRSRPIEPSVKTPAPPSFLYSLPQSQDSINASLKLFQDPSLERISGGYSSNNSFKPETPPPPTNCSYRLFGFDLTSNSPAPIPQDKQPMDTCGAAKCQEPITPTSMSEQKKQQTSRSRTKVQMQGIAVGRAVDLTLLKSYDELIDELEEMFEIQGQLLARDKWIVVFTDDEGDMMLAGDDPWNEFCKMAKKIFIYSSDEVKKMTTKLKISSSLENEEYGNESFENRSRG
Chain of UniProt Q8RYC8 (whole entry, looked up): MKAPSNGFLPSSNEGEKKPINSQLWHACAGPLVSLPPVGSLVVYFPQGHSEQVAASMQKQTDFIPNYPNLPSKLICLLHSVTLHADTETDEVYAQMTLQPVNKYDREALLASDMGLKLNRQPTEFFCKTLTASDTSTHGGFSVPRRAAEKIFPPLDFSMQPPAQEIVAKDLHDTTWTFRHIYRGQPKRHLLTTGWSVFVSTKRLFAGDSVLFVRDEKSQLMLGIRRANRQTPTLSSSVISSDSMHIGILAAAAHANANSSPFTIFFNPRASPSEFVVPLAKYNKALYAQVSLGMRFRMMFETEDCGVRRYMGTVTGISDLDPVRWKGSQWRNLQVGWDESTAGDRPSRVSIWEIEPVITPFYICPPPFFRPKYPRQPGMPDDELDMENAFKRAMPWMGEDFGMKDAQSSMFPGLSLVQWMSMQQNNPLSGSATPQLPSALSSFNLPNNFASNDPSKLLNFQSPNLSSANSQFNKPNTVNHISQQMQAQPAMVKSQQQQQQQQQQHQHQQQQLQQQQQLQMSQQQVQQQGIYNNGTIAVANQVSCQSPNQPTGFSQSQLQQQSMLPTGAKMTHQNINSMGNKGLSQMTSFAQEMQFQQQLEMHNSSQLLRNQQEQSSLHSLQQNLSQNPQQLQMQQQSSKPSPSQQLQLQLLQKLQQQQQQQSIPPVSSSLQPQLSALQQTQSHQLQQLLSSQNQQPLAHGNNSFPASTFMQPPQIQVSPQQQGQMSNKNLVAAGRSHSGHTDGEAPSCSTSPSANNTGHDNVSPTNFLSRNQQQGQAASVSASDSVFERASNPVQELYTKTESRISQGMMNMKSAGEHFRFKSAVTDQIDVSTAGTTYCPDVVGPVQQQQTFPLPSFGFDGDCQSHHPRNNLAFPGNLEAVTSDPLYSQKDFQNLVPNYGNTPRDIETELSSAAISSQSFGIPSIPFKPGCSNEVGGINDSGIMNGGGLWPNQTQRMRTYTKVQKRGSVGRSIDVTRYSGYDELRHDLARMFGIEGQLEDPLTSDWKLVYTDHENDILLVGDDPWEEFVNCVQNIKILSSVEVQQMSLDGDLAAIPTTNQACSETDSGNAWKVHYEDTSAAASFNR

Series 1
Target: Translocator protein (Tspo, Rattus norvegicus, UniProt P16257)
Chain of UniProt P16257 (whole entry, looked up): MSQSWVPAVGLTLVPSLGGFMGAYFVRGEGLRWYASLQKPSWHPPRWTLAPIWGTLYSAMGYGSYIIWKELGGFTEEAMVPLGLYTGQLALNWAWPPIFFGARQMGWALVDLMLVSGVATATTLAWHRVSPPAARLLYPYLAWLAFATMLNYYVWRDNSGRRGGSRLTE
Read-out: radioligand binding
Method: radioligand displacement
Concentration: 10 µM
| Structure (SMILES) | inhibition [%] |
| --- | --- |
| O=C1NC(c2ccccn2)Sc2ccccc21 (stereo not drawn) | 22.6 |
| O=C(NS(=O)(=O)c1ccc(NCC2CCOCC2)c([N+](=O)[O-])c1)c1ccc(N2CCN(Cc3ccc(C(F)(F)F)cc3-c3ccc(Cl)cc3)CC2)cc1Oc1cnc2[nH]ccc2c1 | 11.6 |
| Cc1c(N2CCCC2)nc2ccc(Br)cc2c1C(=O)NC[C@H](CCC(=O)O)c1ccccc1Cl | -2.43 |
| CC(=O)N1CCC(c2ccc(C(=O)NC(=N)N)cc2C(F)(F)F)CC1 | 6.39 |
| Cc1nccc(COC(=O)N2C[C@@H]3[C@@H](CNC(=O)c4ccc5[nH]nnc5c4)[C@@H]3C2)n1 | -4.4 |
| CC(=O)C1=C(C)N(c2cccc(C(F)(F)F)c2)C(=O)N[C@H]1c1ccc(C#N)nc1 | -17.8 |
| COc1ccc2cc(OCC3(C(=O)O)CN(C(=O)c4ccc(F)cc4)C3)ccc2c1 | -30.5 |
| CN(C)c1ncnc(-c2ccc3nc(Nc4cc(CN5CCN(C(=O)CC(F)(F)F)CC5)ccn4)[nH]c3c2)c1Cl | 13.9 |

Series 2
Target: PABPC1L2, full length, GST fusion (mouse, UniProt A0ABA7IW68)
Method: RNAcompete
Molecule type: RNA
Matrix: in vitro
Concentration: 20 nM
Notes: 7-mer, probes averaged, single round
Reference: mean of 7-mers
Direction: higher = stronger binding
Target sequence (chain): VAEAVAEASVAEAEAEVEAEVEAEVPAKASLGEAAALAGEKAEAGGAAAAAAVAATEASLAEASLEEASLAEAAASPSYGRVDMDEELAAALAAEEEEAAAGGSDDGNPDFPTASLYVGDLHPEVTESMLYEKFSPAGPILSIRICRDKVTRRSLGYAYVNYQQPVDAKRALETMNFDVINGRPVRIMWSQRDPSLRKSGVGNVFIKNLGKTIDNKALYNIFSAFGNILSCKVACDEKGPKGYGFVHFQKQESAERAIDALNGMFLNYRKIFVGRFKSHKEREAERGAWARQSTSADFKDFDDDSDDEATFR
| Strand | 7-mer Z-score |
| --- | --- |
| AAGUAAC | 0.198 |
| UUUGUGC | -0.378 |
| GAUCCCU | -0.362 |
| UAGGAGC | -0.0337 |
| GGACUUU | -0.0409 |
| CUGGCUG | -0.0863 |
| CCAUCGG | -0.249 |
| GGGCUUG | 0.0805 |

Series 3
Structure (SMILES): O=C(c1cc2cc(O)ccc2[nH]1)c1cc2cc(O)ccc2[nH]1
Read-out: enzyme activity
Action: inhibitor
Concentration: 0.5 µM
Reference: control
| target | remaining activity [%] |
| --- | --- |
| CHEK2 (Homo sapiens, UniProt O96017) | 80.1 |
| CAMK2D (Homo sapiens, UniProt Q13557) | 63.7 |
| TGFBR2 (Homo sapiens, UniProt P37173) | 123 |
| STK39 (Homo sapiens, UniProt Q9UEW8) | 97.6 |
| cGMP-dependent protein kinase 1, isoform beta (PRKG1, Homo sapiens, UniProt Q13976) | 84.3 |
| PRKACA (Homo sapiens, UniProt P17612) | 107 |
| MAPK9 (Homo sapiens, UniProt P45984) | 116 |
| Protein kinase C beta type, isoform beta-I (PRKCB, Homo sapiens, UniProt P05771) | 90.4 |
| STK11 (Homo sapiens, UniProt Q15831) | 101 |
| NEK2 (Homo sapiens, UniProt P51955) | 101 |
| DAPK1 (Homo sapiens, UniProt P53355) | 101 |
| Cyclin-dependent kinase 4, with cyclin D1 (CDK4, Homo sapiens, UniProt P11802) | 91.5 |
| MAP3K3 (Homo sapiens, UniProt Q99759) | 96 |
| GRK3 (Homo sapiens, UniProt P35626) | 102 |
| Tyrosine-protein kinase Lyn, isoform B (LYN, Homo sapiens, UniProt P07948) | 62.7 |
| STK10 (Homo sapiens, UniProt O94804) | 70.3 |
| PRKCA (Homo sapiens, UniProt P17252) | 84.1 |
| IKBKB (Homo sapiens, UniProt O14920) | 91.3 |
| CAMKK2 (Homo sapiens, UniProt Q96RR4) | 84.2 |
| TGFBR1 (Homo sapiens, UniProt P36897) | 93.4 |
| IKBKE (Homo sapiens, UniProt Q14164) | 81.6 |
| DAPK2 (Homo sapiens, UniProt Q9UIK4) | 101 |
| OXSR1 (Homo sapiens, UniProt O95747) | 105 |
| Cyclin-dependent kinase 5, with p25 (CDK5, Homo sapiens, UniProt Q00535) | 52.6 |

Series 4
Molecule: IAA7 (Arabidopsis thaliana, UniProt Q38825)
Chain of UniProt Q38825 (whole entry, looked up): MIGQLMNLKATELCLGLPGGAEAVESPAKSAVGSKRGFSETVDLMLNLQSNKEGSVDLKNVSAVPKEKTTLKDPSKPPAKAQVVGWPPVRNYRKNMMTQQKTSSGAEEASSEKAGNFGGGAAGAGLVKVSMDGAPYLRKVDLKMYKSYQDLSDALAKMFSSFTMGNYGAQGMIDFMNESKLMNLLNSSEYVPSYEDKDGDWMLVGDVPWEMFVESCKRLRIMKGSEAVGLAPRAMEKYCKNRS
Method: two-hybrid
Direction: higher = firmer interaction
| partner | notes | reference | positive tests |
| --- | --- | --- | --- |
| ARF11 500-622 (Arabidopsis thaliana, UniProt Q9ZPY6) |  | out of 4 tests | 1 |
| ARF19 948-1086 (Arabidopsis thaliana, UniProt Q8RYC8) |  | out of 4 tests | 4 |
| ARF8 699-811 (Arabidopsis thaliana, UniProt Q9FGV1) |  | out of 2 tests | 2 |
| ARF7 1030-1164 (Arabidopsis thaliana, UniProt P93022) |  | out of 4 tests | 4 |
| IAA31 (Arabidopsis thaliana, UniProt Q8H174) |  | out of 2 tests | 0 |
| IAA11 (Arabidopsis thaliana, UniProt Q38829) | weak activation fusion | out of 4 tests | 0 |
| ARF18 482-602 (Arabidopsis thaliana, UniProt Q9C5W9) |  | out of 2 tests | 1 |
| IAA18 (Arabidopsis thaliana, UniProt O24408) |  | out of 4 tests | 3 |

Some of these lines once more (series 1):
| Structure (SMILES) | inhibition [%] |
| --- | --- |
| O=C1NC(c2ccccn2)Sc2ccccc21 (stereo not drawn) | 22.6 |
| Cc1nccc(COC(=O)N2C[C@@H]3[C@@H](CNC(=O)c4ccc5[nH]nnc5c4)[C@@H]3C2)n1 | -4.4 |
| COc1ccc2cc(OCC3(C(=O)O)CN(C(=O)c4ccc(F)cc4)C3)ccc2c1 | -30.5 |
| Cc1c(N2CCCC2)nc2ccc(Br)cc2c1C(=O)NC[C@H](CCC(=O)O)c1ccccc1Cl | -2.43 |
